Results gathered from unrelated publications.
Parts stem from different laboratories: compare values within a part only.
Sequence of UniProt Q9UBE8 (whole entry, looked up): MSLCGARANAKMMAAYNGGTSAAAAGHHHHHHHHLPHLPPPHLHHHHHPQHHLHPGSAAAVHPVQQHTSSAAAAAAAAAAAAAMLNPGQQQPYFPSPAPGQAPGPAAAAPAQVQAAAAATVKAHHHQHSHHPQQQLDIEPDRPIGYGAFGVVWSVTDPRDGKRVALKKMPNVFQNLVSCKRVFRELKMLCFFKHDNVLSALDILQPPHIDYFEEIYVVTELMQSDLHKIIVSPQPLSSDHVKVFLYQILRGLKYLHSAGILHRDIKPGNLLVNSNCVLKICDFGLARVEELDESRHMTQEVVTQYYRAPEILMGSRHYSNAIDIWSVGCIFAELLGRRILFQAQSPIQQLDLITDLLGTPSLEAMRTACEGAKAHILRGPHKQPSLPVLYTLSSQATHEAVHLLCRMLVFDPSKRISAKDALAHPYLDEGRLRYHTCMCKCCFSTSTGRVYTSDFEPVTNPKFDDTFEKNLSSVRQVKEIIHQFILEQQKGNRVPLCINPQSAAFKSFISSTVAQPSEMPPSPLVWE
Sequence of UniProt P10721 (whole entry, unmodified, looked up): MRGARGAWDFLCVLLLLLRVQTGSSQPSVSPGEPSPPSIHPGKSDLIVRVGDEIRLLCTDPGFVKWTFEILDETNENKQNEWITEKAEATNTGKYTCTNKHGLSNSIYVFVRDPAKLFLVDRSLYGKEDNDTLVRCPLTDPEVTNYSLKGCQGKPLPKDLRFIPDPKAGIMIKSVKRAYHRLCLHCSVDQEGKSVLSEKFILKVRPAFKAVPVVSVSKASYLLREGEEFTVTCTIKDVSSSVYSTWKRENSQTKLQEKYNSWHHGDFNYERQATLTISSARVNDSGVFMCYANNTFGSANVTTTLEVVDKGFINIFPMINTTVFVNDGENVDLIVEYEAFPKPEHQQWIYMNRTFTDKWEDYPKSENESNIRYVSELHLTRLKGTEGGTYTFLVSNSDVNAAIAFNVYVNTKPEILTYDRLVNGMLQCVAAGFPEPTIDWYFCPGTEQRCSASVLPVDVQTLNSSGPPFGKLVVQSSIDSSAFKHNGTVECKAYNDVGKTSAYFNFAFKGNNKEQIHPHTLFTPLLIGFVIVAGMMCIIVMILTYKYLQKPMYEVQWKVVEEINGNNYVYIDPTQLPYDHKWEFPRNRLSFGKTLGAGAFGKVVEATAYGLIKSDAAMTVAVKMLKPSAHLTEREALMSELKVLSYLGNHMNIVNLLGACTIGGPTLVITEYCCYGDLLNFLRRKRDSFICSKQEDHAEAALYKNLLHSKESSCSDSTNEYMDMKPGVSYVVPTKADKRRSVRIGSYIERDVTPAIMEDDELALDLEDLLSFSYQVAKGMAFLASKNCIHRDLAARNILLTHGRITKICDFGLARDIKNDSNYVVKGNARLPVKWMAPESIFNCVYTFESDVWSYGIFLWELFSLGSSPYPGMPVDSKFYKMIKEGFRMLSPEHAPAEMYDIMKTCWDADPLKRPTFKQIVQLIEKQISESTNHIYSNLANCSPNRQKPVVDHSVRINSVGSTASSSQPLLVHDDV
Sequence of UniProt P49759 (whole entry, looked up): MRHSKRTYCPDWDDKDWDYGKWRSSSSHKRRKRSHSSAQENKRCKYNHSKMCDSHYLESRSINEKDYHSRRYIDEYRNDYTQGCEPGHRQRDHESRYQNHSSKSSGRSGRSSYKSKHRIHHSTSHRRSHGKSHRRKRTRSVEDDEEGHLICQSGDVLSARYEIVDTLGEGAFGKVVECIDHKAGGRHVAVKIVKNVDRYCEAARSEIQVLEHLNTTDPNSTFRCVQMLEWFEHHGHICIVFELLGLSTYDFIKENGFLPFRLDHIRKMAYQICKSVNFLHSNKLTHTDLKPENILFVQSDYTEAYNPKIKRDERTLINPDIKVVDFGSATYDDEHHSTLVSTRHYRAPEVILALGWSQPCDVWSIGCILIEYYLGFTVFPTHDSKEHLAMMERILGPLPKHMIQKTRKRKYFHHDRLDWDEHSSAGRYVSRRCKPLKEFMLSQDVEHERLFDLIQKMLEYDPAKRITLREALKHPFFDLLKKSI
Sequence of UniProt Q9Y2H9 (whole entry, looked up): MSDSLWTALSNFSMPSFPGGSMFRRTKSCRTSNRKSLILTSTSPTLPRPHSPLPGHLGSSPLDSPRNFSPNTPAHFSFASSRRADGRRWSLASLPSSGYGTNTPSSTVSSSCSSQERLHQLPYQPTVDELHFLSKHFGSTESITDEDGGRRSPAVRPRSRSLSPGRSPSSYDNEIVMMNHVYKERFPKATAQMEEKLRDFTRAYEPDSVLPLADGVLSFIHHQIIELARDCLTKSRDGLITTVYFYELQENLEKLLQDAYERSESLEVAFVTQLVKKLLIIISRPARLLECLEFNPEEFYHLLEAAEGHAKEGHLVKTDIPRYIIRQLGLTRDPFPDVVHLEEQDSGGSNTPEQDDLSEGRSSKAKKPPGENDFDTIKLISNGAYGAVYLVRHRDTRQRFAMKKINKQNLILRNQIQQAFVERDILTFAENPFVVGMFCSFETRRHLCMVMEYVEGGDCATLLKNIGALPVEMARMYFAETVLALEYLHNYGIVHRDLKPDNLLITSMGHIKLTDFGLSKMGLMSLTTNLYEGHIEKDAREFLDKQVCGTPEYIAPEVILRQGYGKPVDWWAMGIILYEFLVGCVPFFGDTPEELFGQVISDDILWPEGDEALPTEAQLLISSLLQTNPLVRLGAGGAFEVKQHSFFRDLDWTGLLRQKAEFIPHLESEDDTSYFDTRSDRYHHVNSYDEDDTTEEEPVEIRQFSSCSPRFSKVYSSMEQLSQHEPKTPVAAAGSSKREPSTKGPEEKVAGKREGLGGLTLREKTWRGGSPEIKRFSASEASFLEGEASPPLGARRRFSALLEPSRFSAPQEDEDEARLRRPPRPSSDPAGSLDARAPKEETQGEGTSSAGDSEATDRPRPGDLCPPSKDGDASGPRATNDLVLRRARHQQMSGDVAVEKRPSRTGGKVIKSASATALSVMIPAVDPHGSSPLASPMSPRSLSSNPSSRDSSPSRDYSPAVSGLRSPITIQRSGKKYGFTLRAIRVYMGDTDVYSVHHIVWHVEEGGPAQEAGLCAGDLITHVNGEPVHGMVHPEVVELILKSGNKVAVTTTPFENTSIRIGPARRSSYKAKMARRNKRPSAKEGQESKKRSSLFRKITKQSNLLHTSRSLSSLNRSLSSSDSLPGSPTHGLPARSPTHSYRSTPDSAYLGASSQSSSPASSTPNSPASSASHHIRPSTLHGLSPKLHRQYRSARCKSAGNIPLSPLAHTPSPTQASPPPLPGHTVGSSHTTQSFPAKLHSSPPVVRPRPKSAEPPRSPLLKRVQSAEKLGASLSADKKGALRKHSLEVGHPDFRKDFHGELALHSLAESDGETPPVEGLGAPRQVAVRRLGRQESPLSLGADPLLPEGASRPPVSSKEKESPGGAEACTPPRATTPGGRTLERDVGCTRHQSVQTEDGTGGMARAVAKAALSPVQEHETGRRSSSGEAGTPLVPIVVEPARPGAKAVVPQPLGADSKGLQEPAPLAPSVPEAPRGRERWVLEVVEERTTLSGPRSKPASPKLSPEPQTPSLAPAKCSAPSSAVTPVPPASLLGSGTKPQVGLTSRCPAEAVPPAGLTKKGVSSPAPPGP
Sequence of UniProt Q9HAZ1 (whole entry, looked up): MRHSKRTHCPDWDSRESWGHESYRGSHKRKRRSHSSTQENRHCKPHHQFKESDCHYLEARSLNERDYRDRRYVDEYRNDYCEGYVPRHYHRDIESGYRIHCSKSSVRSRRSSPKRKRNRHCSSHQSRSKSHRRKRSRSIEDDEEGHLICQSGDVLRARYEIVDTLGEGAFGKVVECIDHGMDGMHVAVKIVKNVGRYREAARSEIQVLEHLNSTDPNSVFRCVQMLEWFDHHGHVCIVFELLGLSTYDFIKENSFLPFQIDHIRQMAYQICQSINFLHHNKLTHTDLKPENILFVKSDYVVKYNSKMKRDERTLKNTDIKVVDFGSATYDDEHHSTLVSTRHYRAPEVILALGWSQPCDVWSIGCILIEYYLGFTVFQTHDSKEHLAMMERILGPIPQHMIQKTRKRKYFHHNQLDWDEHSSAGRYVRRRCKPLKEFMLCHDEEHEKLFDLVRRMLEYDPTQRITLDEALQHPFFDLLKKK
Sequence of UniProt P51955 (whole entry, looked up): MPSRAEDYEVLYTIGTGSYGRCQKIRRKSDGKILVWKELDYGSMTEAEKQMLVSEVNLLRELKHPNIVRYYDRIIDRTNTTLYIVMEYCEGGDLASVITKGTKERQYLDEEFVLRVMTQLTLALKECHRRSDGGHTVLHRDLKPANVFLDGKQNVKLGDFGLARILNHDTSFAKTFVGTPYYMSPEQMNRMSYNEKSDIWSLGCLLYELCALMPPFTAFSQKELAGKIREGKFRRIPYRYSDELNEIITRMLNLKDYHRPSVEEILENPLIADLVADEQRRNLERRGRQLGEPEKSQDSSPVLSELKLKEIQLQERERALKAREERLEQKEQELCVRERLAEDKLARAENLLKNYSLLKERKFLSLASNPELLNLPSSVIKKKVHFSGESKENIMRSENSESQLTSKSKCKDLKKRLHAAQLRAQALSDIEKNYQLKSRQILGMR

Sample 1 — method: phase 2a trial; species: idiopathic pulmonary fibrosis patients
SMILES: CC(C)n1cnc(-c2ccc(F)cc2)c1-c1ncc(C(=O)Nc2ccc(N3CCN(C)CC3)cc2)[nH]1
dose	setting	patients with paronychia [%]
30 mg once daily	grade 4 emergent event	0
all arms pooled	grade 3 emergent event	0
60 mg once daily	grade 5 emergent event	0
60 mg once daily	grade 1 emergent event	0
30 mg once daily	grade 2 emergent event	0
30 mg once daily	grade 3 emergent event	0
all arms pooled	grade 1 emergent event	0

Sample 2 — read-out: enzyme activity; mode: inhibitor; tested at: 0.5 µM; relative to: control
Target: Dual specificity tyrosine-phosphorylation-regulated kinase 4 (DYRK4, Homo sapiens, UniProt Q9NR20)
Sequence of UniProt Q9NR20 (whole entry, looked up): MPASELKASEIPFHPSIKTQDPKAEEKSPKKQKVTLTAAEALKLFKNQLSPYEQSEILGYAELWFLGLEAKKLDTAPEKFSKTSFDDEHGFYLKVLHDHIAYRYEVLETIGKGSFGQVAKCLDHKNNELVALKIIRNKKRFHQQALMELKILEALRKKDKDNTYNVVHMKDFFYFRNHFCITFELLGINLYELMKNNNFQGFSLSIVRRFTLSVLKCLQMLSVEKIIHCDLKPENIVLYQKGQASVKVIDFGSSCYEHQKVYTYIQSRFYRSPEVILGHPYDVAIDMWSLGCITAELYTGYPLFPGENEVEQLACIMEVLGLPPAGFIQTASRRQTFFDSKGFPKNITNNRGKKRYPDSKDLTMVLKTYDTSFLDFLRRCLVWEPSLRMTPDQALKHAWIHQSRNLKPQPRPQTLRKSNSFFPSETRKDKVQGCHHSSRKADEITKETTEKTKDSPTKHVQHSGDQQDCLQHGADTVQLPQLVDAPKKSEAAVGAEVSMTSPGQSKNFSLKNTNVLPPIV
SMILES	remaining activity [%]
O=C(NC(NC(=S)Nc1ccc(F)c([N+](=O)[O-])c1)C(Cl)(Cl)Cl)C(c1ccccc1)c1ccccc1 (centres unmarked)	104
CN([C@@H](Cc1ccc(OS(=O)(=O)c2cccc3cnccc23)cc1)C(=O)N1CCN(c2ccccc2)CC1)S(=O)(=O)c1cccc2cnccc12	97.8
N#Cc1c(NC(=O)c2cccc3ccccc23)sc2c1CCCC2	98.1
C[C@@H]1CCN(C(=O)CC#N)C[C@@H]1N(C)c1ncnc2[nH]ccc12	97.2
N#C/C(=C\c1ccc(O)c(O)c1)C(=O)NCc1ccccc1	106
Cc1cn(-c2cc(NC(=O)c3ccc(C)c(Nc4nccc(-c5cccnc5)n4)c3)cc(C(F)(F)F)c2)cn1	101
c1ccc(-c2[nH]ncc2-c2ccnc3ccccc23)nc1	104
O=C(Nc1cccc(Nc2nccc(Nc3cccc(C(F)(F)F)c3)n2)c1)C1CC1	107
CCN(CC)CCNC(=O)c1c(C)[nH]c(/C=C2\C(=O)Nc3ccc(F)cc32)c1C	104
COc1cc2ncnc(Nc3ccc(O)c(Br)c3)c2cc1OC	101
Cc1cc2ncc(-c3ccccc3)nc2cc1C	90.3
c1ccc(-c2cnc(Nc3ccc(OCCN4CCCC4)cc3)s2)cc1	99.4
COc1cc2ncnc(Nc3cccc(Cl)c3)c2cc1OC	91.7
CCN(CC)C(=O)c1ccc(Nc2nc(OCC3CCCCC3)c3[nH]cnc3n2)cc1	93.6
CCOc1nc(NC(=O)Cc2cc(OC)ccc2OC)cc(N)c1C#N	92.6
Ic1cccc(CSc2nnc(-c3ccncc3)o2)c1	98.5
Cc1nc2cc3nc(-c4cccs4)cnc3cc2n1C	104
Cn1nc2c3c(cccc31)C(=O)c1ccccc1-2	91.2
CCN(CC)CCNC(=O)c1c(C)[nH]c(/C=C2\C(=O)Nc3ccc(Cl)cc32)c1C	97.9
Nc1cccc(-c2cc3c(Oc4cccc(O)c4)ncnc3[nH]2)c1	101
CN(C)C[C@H]1CCn2c(c(C3=C(c4cn(C)c5ccccc45)C(=O)NC3=O)c3ccccc32)C1	98.9
O=C1c2ccccc2-c2n[nH]c3cccc1c23	105
COc1cc2c(cc1OC)-c1[nH]nc(Nc3cccc(F)c3)c1C2	92.6
O=c1cc(-c2cccc3c2Sc2ccccc2S3)oc(N2CCOCC2)c1	105
O=C1C(Cl)=C(N2C(=O)CCC2=O)C(=O)c2ccccc21	94.1

Sample 3 — read-out: enzyme activity; mode: inhibitor; tested at: 1 µM
SMILES: CC#CC(=O)N1CCC[C@H]1c1nc(-c2ccc(C(=O)Nc3ccccn3)cc2)c2c(N)nccn12
target	inhibition [%]
RIOK3 (Homo sapiens, UniProt O14730)	66
NLK (Homo sapiens, UniProt Q9UBE8)	0
FGFR3 (Homo sapiens, UniProt P22607)	3
Tyrosine-protein kinase ABL1, phosphorylated (ABL1, Homo sapiens, UniProt P00519, H396P)	19
NEK2 (Homo sapiens, UniProt P51955)	0
IRAK3 (Homo sapiens, UniProt Q9Y616)	0
MAST1 (Homo sapiens, UniProt Q9Y2H9)	26

Sample 4 — read-out: cell-free assay; method: competition with immobilised ligand; tested at: 1 µM
SMILES: CN(C)CC#Cc1ccc(OCCCc2sc(N3CCc4cccc(C(=O)Nc5nc6ccccc6s5)c4C3)nc2C(=O)O)c(F)c1
target	remaining binding [%]
CIT (Homo sapiens, UniProt O14578)	77
NLK (Homo sapiens, UniProt Q9UBE8)	80
PIK3CD (Homo sapiens, UniProt O00329)	100
EPHA5 (Homo sapiens, UniProt P54756)	98
RAF1 (Homo sapiens, UniProt P04049)	97
CAMK2A (Homo sapiens, UniProt Q9UQM7)	64
Tyrosine-protein kinase ABL1, phosphorylated (ABL1, Homo sapiens, UniProt P00519, Q252H)	94
NEK10 (Homo sapiens, UniProt Q6ZWH5)	87
NEK11 (Homo sapiens, UniProt Q8NG66)	100
SGK3 (Homo sapiens, UniProt Q96BR1)	100
DYRK1A (Homo sapiens, UniProt Q13627)	88
SRMS (Homo sapiens, UniProt Q9H3Y6)	100
Tyrosine-protein kinase ABL1, phosphorylated (ABL1, Homo sapiens, UniProt P00519, M351T)	91
KIT (Homo sapiens, UniProt P10721, V559D/V654A)	78
BRSK1 (Homo sapiens, UniProt Q8TDC3)	100
EGFR (Homo sapiens, UniProt P00533, L861Q)	100
EGFR (Homo sapiens, UniProt P00533, G719S)	100
CLK1 (Homo sapiens, UniProt P49759)	88
PIK3C2B (Homo sapiens, UniProt O00750)	100
YES1 (Homo sapiens, UniProt P07947)	100
KIT (Homo sapiens, UniProt P10721, L576P)	95
CLK4 (Homo sapiens, UniProt Q9HAZ1)	74
TNIK (Homo sapiens, UniProt Q9UKE5)	83

Excerpt of the above (sample 2):
SMILES	remaining activity [%]
Cn1nc2c3c(cccc31)C(=O)c1ccccc1-2	91.2
CCN(CC)CCNC(=O)c1c(C)[nH]c(/C=C2\C(=O)Nc3ccc(Cl)cc32)c1C	97.9
Nc1cccc(-c2cc3c(Oc4cccc(O)c4)ncnc3[nH]2)c1	101
CN(C)C[C@H]1CCn2c(c(C3=C(c4cn(C)c5ccccc45)C(=O)NC3=O)c3ccccc32)C1	98.9
